# Published values from different studies.
# Each line is one published result; not all experiments were run side by side.
# Chain of UniProt P14616 (whole entry, looked up): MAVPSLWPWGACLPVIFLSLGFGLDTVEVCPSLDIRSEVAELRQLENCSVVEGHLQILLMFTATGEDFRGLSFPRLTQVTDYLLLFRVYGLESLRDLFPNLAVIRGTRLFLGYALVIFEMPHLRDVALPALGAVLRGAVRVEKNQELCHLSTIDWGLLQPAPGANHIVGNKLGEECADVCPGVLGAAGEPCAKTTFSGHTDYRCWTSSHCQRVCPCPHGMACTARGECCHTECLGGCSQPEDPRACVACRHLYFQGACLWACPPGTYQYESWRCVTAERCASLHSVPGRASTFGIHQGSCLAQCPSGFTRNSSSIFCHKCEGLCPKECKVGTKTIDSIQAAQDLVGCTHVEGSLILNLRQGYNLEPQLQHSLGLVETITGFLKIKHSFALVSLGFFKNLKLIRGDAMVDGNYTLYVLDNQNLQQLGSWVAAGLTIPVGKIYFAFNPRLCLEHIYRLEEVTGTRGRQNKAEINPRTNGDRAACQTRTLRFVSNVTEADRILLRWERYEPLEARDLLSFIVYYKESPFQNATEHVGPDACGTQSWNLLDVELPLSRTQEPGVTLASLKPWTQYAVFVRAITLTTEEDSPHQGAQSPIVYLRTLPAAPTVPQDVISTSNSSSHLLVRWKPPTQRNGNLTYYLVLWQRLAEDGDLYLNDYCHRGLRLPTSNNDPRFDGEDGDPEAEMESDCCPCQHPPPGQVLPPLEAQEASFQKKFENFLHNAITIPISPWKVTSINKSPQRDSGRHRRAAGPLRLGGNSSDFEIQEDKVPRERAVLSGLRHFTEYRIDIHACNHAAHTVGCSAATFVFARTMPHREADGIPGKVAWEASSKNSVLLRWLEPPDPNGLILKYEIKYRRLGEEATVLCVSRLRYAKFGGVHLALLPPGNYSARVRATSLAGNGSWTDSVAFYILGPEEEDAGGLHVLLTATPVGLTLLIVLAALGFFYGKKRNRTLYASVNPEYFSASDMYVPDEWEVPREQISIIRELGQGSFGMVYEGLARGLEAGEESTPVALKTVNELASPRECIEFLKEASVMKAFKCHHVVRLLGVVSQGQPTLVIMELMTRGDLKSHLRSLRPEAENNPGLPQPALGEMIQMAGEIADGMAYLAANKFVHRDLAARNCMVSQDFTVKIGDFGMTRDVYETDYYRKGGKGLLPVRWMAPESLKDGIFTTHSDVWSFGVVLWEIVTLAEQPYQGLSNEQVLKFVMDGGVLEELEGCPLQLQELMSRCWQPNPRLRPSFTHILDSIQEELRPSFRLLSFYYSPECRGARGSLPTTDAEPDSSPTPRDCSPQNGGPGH
# Chain of UniProt P32246 (whole entry, looked up): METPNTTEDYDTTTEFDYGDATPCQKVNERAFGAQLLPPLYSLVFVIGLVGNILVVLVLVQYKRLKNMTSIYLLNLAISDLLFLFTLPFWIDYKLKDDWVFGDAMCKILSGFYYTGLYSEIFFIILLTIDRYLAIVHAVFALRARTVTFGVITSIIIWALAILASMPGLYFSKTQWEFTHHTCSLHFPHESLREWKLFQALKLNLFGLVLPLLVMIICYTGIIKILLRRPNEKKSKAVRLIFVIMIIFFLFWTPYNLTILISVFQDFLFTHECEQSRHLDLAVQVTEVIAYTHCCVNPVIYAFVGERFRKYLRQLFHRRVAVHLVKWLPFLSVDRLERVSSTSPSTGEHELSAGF
# Chain of UniProt P27361 (whole entry, looked up): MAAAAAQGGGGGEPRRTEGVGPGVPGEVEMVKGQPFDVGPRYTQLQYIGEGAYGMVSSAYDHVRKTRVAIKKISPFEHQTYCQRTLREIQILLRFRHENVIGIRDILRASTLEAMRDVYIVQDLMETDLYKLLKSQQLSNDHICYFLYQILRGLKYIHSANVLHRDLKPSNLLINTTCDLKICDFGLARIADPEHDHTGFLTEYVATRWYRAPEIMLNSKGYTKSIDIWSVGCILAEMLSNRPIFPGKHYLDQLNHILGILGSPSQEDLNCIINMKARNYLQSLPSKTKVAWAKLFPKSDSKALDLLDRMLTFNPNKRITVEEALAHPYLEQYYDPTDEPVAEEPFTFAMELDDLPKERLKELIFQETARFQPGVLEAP
# Chain of UniProt P11229 (whole entry, looked up): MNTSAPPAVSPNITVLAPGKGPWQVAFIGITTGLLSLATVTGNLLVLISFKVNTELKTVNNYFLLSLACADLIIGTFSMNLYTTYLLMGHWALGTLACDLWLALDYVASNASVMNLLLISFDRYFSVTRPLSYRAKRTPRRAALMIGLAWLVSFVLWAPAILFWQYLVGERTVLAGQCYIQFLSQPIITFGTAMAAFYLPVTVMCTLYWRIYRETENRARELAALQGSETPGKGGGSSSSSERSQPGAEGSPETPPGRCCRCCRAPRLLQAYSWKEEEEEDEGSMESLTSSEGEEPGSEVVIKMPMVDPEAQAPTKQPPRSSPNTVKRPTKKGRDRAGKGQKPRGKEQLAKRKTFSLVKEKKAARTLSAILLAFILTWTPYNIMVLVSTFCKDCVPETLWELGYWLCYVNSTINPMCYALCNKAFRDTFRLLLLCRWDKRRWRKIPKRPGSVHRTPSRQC
# Chain of UniProt P42336 (whole entry, unmodified, looked up): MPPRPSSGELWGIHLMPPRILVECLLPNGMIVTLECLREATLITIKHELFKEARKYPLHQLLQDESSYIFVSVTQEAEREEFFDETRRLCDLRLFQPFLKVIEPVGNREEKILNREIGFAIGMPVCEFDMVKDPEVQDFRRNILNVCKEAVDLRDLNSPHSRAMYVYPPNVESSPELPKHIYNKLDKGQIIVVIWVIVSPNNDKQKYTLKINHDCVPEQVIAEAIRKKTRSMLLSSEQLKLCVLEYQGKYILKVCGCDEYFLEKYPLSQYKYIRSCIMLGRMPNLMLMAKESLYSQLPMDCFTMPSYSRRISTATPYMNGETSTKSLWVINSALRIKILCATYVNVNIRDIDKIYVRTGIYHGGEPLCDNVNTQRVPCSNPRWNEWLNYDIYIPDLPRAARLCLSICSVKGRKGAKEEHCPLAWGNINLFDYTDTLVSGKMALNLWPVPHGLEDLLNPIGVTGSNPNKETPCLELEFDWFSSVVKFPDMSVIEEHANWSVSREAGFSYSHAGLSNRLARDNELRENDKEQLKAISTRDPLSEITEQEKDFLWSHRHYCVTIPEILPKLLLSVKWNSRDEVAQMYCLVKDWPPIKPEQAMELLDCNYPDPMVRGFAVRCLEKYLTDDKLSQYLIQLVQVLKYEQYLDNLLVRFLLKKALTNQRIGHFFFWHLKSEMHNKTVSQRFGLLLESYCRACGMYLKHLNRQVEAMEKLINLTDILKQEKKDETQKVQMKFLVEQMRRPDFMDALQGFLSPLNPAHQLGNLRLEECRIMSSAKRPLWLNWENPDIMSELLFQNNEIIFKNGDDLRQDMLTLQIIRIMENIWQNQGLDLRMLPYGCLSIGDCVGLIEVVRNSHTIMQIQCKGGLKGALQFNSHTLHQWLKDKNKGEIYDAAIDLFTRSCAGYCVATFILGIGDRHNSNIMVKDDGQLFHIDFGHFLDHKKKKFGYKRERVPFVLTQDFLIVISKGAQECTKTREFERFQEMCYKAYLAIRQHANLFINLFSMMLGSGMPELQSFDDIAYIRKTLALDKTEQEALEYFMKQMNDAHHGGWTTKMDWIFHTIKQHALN
# Chain of UniProt Q56UN5 (whole entry, looked up): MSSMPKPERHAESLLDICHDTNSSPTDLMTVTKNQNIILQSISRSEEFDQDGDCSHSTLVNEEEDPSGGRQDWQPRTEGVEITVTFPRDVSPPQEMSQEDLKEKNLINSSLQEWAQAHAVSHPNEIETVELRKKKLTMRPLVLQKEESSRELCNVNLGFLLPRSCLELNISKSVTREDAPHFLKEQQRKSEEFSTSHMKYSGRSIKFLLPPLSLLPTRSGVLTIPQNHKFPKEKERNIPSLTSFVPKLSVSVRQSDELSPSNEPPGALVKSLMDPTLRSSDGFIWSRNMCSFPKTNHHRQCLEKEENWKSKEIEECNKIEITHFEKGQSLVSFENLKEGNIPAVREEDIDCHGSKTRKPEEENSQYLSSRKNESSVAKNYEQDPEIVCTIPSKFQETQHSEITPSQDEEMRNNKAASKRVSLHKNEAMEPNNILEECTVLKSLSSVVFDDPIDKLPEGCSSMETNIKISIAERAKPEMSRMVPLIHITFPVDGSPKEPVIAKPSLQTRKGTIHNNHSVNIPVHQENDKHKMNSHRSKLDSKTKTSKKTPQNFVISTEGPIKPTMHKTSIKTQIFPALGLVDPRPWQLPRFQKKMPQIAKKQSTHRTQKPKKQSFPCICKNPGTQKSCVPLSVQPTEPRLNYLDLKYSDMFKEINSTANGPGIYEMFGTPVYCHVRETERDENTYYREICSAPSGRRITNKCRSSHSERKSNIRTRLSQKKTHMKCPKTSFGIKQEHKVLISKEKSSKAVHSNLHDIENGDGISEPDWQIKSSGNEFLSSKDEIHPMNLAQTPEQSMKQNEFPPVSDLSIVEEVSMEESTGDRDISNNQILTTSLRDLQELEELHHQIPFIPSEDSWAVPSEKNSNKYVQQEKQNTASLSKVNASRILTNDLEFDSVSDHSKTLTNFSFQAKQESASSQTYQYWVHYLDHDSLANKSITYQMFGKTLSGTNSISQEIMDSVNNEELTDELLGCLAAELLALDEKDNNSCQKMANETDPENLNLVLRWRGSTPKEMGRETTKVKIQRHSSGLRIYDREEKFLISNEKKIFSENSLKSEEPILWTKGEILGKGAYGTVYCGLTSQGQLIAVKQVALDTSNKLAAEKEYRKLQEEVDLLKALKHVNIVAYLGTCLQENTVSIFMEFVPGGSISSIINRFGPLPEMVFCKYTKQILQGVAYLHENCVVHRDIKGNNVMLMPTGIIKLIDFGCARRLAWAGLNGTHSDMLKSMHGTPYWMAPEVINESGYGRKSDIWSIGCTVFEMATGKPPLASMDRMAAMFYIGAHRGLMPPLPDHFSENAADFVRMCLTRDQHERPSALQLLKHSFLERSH
SMILES,target,assay,setting,endpoint,result
CN1CC[C@@]2(C)c3cc(OC(=O)Nc4ccccc4)ccc3N(C)[C@@H]12,"Muscarinic acetylcholine receptor M1 (CHRM1, Homo sapiens, UniProt P11229)","ligand displacement, radioligand",10 µM,inhibition,0%
Cc1nn(C)cc1-c1nc2c(N3CCN(Cc4ccc(Cl)cc4)CC3)c(Cl)cnc2[nH]1,"Phosphatidylinositol 4,5-bisphosphate 3-kinase catalytic subunit alpha isoform (PIK3CA, Homo sapiens, UniProt P42336, E545A)","binding, competition with immobilised ligand",1 µM,remaining binding,75%
CN[C@]1(c2ccccc2Cl)CCCCC1=O,"Mitogen-activated protein kinase 3 (MAPK3, Homo sapiens, UniProt P27361)","enzyme activity, inhibitor",30 µM,inhibition,-1%
Nc1ncc(-c2nc(N3CCOCC3)nc(N3CCOCC3)n2)c(C(F)F)n1,"Mitogen-activated protein kinase kinase kinase 19 (MAP3K19, Homo sapiens, UniProt Q56UN5)","binding, competition with immobilised ligand",10 µM,remaining binding,41%
CCN(CC)CCCC[C@H](NC(=O)[C@H](CC(C)C)NC(=O)[C@H](C)NC(=O)[C@H](Cc1ccccc1)NC(=O)c1ccc(C(C)(C)C)cc1)C(=O)N[C@@H](CO)C(=O)OC,"Bromodomain-containing protein 4, BD1 (BRD4, Homo sapiens, UniProt O60885)","thermal stability, DSF",25 µM,ΔTm,0.88 °C
[2H]c1c([2H])c([C@]2([2H])CCCN2C(=O)C(C)(C)Oc2ccc3cn[nH]c3c2)c([2H])c([2H])c1C([2H])([2H])[2H],"Calcium/calmodulin-dependent protein kinase type II subunit gamma (CAMK2G, Homo sapiens, UniProt Q13555)","binding, competition with immobilised ligand",1 µM,remaining binding,83%
CC(C)CC(=O)OC[C@H]1O[C@@](C#N)(c2ccc3c(N)ncnn23)[C@H](O)[C@@H]1O,"C-C chemokine receptor type 1 (CCR1, Homo sapiens, UniProt P32246)",cell-free assay,20 µM,inhibition,-10%
"COc1cc(CCNC(C)c2ccccc2O)c(OC)cc1C#N (single isomer, unassigned; (-))","5-hydroxytryptamine receptor 2B (HTR2B, Homo sapiens, UniProt P41595)","G protein activation, agonist, BRET",,Emax,46%
C#Cc1n[nH]c2c(-c3cn([C@@H](C)c4ccccn4)c(=O)[nH]c3=O)cc(F)cc12,"Insulin receptor-related protein (INSRR, Homo sapiens, UniProt P14616)","enzyme activity, inhibitor",0.1 µM,inhibition,7.1%
COc1ncccc1-c1cnn2ccc(N3CCN(C(=O)OC(C)C)CC3)nc12,"Serine/threonine-protein kinase tousled-like 2 (TLK2, Homo sapiens, UniProt Q86UE8)","binding, competition with immobilised ligand",1 µM,remaining binding,72%

# For quick reference, copied from above:
SMILES,target,assay,setting,endpoint,result
CCN(CC)CCCC[C@H](NC(=O)[C@H](CC(C)C)NC(=O)[C@H](C)NC(=O)[C@H](Cc1ccccc1)NC(=O)c1ccc(C(C)(C)C)cc1)C(=O)N[C@@H](CO)C(=O)OC,"Bromodomain-containing protein 4, BD1 (BRD4, Homo sapiens, UniProt O60885)","thermal stability, DSF",25 µM,ΔTm,0.88 °C
